Results pooled from the literature.
Protocols differ between the studies behind these lines.

SMILES | test | test system | setting | unbound fraction
CCC1(CC)CC(=O)N(C2c3cc(C(=O)NC4c5ccccc5CC4O)ccc3OC2(C)COC)C(=N)N1 (stereo not shown) |  | mouse plasma |  | 0.153
Cc1[nH]nc2c1N=C(c1ccccc1Cl)c1cnc(N3CCOCC3)cc1N2 |  | human plasma |  | 0.025
C=CC(=O)Nc1cc(Nc2ncnc(Nc3cc(Cl)c(F)cc3C(C)(C)O)n2)c(OC)cc1N1CCC(N(C)C)C1 (stereo not shown) |  | human plasma |  | 19.6%
COC1C(c2ccc(Cl)c(Cc3ccc(OC4CCOC4)cc3)c2)OC(CO)C(O)C1O (stereo not shown) |  | rat plasma | 1 µM, 5 h | 0.068
CCC1(CC)CC(=O)N(C2CCOc3ccc(C(=O)NC4CC(C)(C)Oc5ccccc54)cc32)C(=N)N1 (stereo not shown) |  | rat plasma |  | 0.048
C=CC(=O)Nc1cc(Nc2ncnc(Nc3cc(Cl)c(F)cc3C(C)(C)O)n2)c(OC)cc1N(C)CCN(C)C |  | human plasma |  | 22.9%
Fc1cccc(-c2cc3cn[nH]c3nn2)c1F | rapid equilibrium dialysis | mouse plasma | 3 µM | 0.087
CC(=O)N1c2ccc(-c3ccc(CNC(=O)c4cn5cc(-c6cnc(N)nc6)nc(N6CCOCC6)c5n4)cc3)cc2CC[C@@H]1C | rapid equilibrium dialysis | mouse plasma |  | 0.002
C=CC(=O)Nc1cc(Nc2nccc(Nc3cc(Cl)c(F)cc3C(C)(C)O)n2)c(OC)cc1N(C)CCN(C)C |  | human plasma |  | 13.3%
c1n[nH]c2nnc(N3CCCCC3)cc12 | rapid equilibrium dialysis | mouse plasma | 3 µM | 0.168

For quick reference, copied from above:
SMILES | test | test system | setting | unbound fraction
CC(=O)N1c2ccc(-c3ccc(CNC(=O)c4cn5cc(-c6cnc(N)nc6)nc(N6CCOCC6)c5n4)cc3)cc2CC[C@@H]1C | rapid equilibrium dialysis | mouse plasma |  | 0.002
